Published values gathered from unrelated publications.
Numbered parts are unrelated; each lists some results of a single study. Substitutions count along the parent as printed.

Sample 1 — technique: RNA Bind-n-Seq; molecule type: RNA; sample: in vitro; concentration: 365 nM; relative to: no-protein control; direction: higher = stronger binding
Target: RNA binding protein fox-1 homolog 2, RRM domain, GST-SBP tag (RBFOX2, Homo sapiens, UniProt O43251-10, residues 100-194)
Setting: natural RNA segment, single round, ends assumed
Constant ends, left off below: GGGAGUUCUACAGUCCGACGAUC … UGGAAUUCUCGGGUGCCAA
Residues (chain): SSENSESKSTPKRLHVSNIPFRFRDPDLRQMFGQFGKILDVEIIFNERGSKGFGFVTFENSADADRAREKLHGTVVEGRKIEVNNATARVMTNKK
Oligonucleotide	RBNS enrichment (R)
CGCAUUCUCGUGGUCUAGGCUGGGGGAGGGGUUAUCCACCUGUAGCUCUUUCAAUUGAGGUGGUUCUCAUUCUUGCUUCUCUGUGUCCCCCAUAGGCUAAUACCCCUGGC	0.555
GGUCCUGUGGACAUCUUGCAUUUUGGGCACUGCUAGGGGGUCUGGGCUGCUUGGAAGGAGCCAUGGCCUAGGGUUCAGGGAACUAGACUCUAUCCCAGUUGGGUUCAGAC	2
UGGACUCUAUACAGUGAGGGCCACUCACCGACCUGAGUCAGUGUCCUCUGUCUCACAGGGCCCCUCUCCCUUCUGUUCAGUAAACAAACUGAAGCCAAAAAUGAAGCCGU	0.25
AGAGAGUCGGAGAUGAUGCAGCACACACACAAUUCCCCAGCCCAGUGAUGCUUGUGUUGACCAGAUGUUCCUGAGUCUGGAGCAAGCACCCAGGCCAGAAUAACAGAGCU	0.998
UUCCCAUGAACUCAGGGAUUUGUUGGAAGAUUCUCUGCAUAAUAGAUAUAUAUGUAUAUAUAUUUAAAUACACAUAUAUAUUGUACAGAAUAAAAAAUGUUUUAUUGGAC	1.04
CCAGCAGAGAUGCUAGUGGGGCUUCCGCUGUGUCAUCAGACCUCCAGAGCACCUGAUUGGCCCAAAAGACCAGCAAGACCCUUGUCUACUCUGCAGAUGGUGAAGCCUUU	0.362
ACUGGUAAUUUUCUGUAUAUUUGCAAUAUUUGGGUUAGAAAUAAACAGCCUGGACUUUGGUACCUAACCUACUAAGAUGAGUAAGCUACAGUUUUGUAUUGUUUUGUUUU	0.901
UUUUGAAAUCUCUGAAUGCCUUGGUUCUCAGUAUUAUCAUUCUUUAUUGAAUUUAUUUCUUAUUAAAAUAUGUAGUUUUUAAGACUUUUUUUCUGACAGUAUUAUGUAAU	4.36

Sample 2 — technique: protein-binding microarray; molecule type: double-stranded DNA, one strand shown; sample: in vitro; concentration: 250 nM; setting: 60-bp whole probe; with: salmon DNA 0.4 mg/ml; relative to: random background probes; direction: higher = stronger binding; constant ends, left off below: GCCTAGCAC … GTCTTGATTCGCTTGACGCTGCTG
Target: Interferon regulatory factor 5, full length, phosphomimetic (IRF5, Homo sapiens, UniProt Q13568-2, residues 1-514, K96S/S451D/S453D/S456D/S462D)
Oligonucleotide	log fluorescence [z-score]
GACGGTATCGGGATTGGGGACGTGCTA	1.45
CAAGTTTCTCCTTTCGGAATGTGCTAG	6.31
TCATTTTTTTTAATTGAACTGTGCTAG	0.951
GACGGTTCCGGTTTCCGGACGTGCTAG	1.19
GTTCTTTTCTGTTGTCTGTGTGTGCTA	2.46
GACAGTTTCCTTTCCCTGACGTGCTAG	2.03
GCAGTTGTCGTTCAAGGCTGGTGCTAG	-0.243
TCATGTCCTCCTCTCTCACTGTGCTAG	-0.188
GAGGAACTGAGTATCGAGACGTGCTAG	1.48
GTGTTATTAAAACTTCATGAAGTGCTA	0.299
TCAGTCTTGGTTCTCAGACTGTGCTAG	-0.0874
TTAGATCTCAGTCGCGATTAGTGCTAG	0.102
TTAGGTTCCGGTTTCCGTTAGTGCTAG	2.85
GTCGATATCAGACTGGAGACGTGCTAG	1.14
GACGAACTGAGTTGCGAGACGTGCTAG	-0.241
TTAGGTTTCGACTTTGGGTTAGTGCTA	6.41

Sample 3 — target: CCNB3, cyclin fold, Cln2 fusion (human); technique: yeast growth competition, sequencing; sample: yeast; setting: weak parent motif; relative to: not given; direction: higher = stronger binding
Starting sequence: RB1 docking peptide (human); PKPLKKLRFDIEG
Substitution	normalised enrichment score
P3E	0.429
E12L	0.306
P1I	-0.0262
L7V	0.342
G13Q	0.554
K5A L7A	0.203
P3W	0.64
L7S	0.555
K2A	0.0641
P1M	-0.176
L4P	0.23
I11L	0.737
P3L	0.178
K5D	0.056
P3S	0.613
I11W	0.0192
F9Q	0.326
K5R F9L	-0.0991
R8K	-0.0101
R8M	0.236
I11V	-0.058

Sample 4 — technique: DHFR PCA, deep sequencing; sample: yeast; with: (+)-ABA 0 µM; relative to: wild-type fitted maximum; direction: higher = stronger binding
Target: ABI1, truncated, D143A, DHFR fusion (Arabidopsis thaliana)
Setting: methotrexate growth selection, single substitutions
Starting sequence: PYL1, truncated, DHFR fusion (Arabidopsis thaliana); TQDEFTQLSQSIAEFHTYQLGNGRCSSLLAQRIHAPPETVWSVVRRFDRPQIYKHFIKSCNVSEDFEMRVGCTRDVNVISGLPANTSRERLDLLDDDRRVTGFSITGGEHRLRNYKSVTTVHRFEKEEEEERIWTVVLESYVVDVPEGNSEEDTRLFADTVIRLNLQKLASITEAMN
Substitution	relative binding score [%]
Y141S	0.111
R32M	21.6
T86H	12.2
C60G	3.9
D144A	0.0272
N22A	41.7
N114C	1.26
F103N	-2.3
E131V	31.7
A170Q	6.91
R99Y	62.6
N22K	48.3
L8E	-0.784
L28W	-4.38
P146H	-3.35
R132Q	39.2
T101E	-7.65
L93G	-4.19
E4A	8.03

A few entries again (sample 3):
Substitution	normalised enrichment score
P1I	-0.0262
R8K	-0.0101
P3W	0.64
P3S	0.613
K2A	0.0641
E12L	0.306
